{"data": "Measurements collected from several papers", "note": "Every numbered part comes from another study and shows a few of its results, in no order."}
{"data": "Sample 1", "target": "Ephrin type-A receptor 5 (EPHA5, Homo sapiens, UniProt P54756)", "observed": "enzyme activity", "action": "inhibitor", "concentration": "0.5 µM", "reference": "control", "UniProt P54756, sequence (whole entry, looked up)": "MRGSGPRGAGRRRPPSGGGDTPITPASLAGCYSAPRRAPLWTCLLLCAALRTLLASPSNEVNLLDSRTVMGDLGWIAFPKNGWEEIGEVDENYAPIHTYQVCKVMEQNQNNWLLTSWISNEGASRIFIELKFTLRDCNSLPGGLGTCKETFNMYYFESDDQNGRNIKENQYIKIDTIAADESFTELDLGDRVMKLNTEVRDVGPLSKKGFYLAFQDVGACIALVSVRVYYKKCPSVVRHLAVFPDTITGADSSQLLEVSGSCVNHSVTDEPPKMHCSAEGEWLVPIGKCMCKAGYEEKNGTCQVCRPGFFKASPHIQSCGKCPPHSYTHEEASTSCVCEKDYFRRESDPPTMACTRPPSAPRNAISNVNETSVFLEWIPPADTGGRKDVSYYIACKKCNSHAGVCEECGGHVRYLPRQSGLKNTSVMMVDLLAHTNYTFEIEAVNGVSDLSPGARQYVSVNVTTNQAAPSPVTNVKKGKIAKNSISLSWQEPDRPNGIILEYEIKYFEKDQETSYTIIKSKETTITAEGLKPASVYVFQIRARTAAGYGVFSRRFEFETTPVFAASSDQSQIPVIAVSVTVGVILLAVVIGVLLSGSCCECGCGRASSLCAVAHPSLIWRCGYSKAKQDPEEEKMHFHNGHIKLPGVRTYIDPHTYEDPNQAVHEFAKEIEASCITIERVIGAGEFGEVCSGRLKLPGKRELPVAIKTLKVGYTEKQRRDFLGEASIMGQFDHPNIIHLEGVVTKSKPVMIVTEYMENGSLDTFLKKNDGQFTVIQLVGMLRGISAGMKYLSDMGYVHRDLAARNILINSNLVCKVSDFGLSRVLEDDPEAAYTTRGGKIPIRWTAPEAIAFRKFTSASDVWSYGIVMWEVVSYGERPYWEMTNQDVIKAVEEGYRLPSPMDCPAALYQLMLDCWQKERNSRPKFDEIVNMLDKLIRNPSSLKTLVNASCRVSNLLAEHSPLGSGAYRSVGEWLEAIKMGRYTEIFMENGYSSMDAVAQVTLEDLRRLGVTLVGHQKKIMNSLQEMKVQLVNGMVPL"}
{"SMILES": "Cc1cccc(-c2[nH]c(C(C)(C)C)nc2-c2ccc3c(c2)OCO3)n1", "remaining activity": "95.6%"}
{"SMILES": "COc1cc2nccc(Oc3ccc(NC(=S)NC(=O)c4ccccc4C)cc3)c2cc1OC", "remaining activity": "91%"}
{"SMILES": "O=C(Nc1cccc(Nc2cc(Nc3cccc(C(F)(F)F)c3)ncn2)c1)C1CC1", "remaining activity": "106%"}
{"SMILES": "Cc1ccc(NC(=O)c2ccc(CN3CCN(C)CC3)cc2)cc1Nc1nc(-c2cccnc2)cs1", "remaining activity": "104%"}
{"SMILES": "CN(C)c1ccc(C=C2C(=O)Nc3ccccc32)cc1", "remaining activity": "109%"}
{"SMILES": "Cn1sc(=O)n(Cc2ccccc2)c1=O", "remaining activity": "103%"}
{"SMILES": "CNC(=O)c1cc(Oc2ccc(NC(=O)Nc3ccc(Cl)c(C(F)(F)F)c3)cc2)ccn1", "remaining activity": "99.4%"}
{"SMILES": "CCOC(=O)c1c(C)[nH]c(/C=C2\\C(=O)Nc3ccccc32)c1C", "remaining activity": "91.9%"}
{"SMILES": "N#CC(C#N)=C(N)/C(C#N)=C/c1ccc(O)cc1", "remaining activity": "94.3%"}
{"SMILES": "O=C(O)c1ccc2c3c1cccc3c(=O)n1c3ccccc3nc21", "remaining activity": "94.2%"}
{"SMILES": "O=C(CCCc1ccc(-c2ccccc2F)cc1)Nc1ccc(O)cc1", "remaining activity": "99%"}
{"SMILES": "COc1ccc(OC)c2c(=S)c3ccccc3[nH]c12", "remaining activity": "114%"}
{"SMILES": "CC(C)[C@H](CO)Nc1nc(Nc2cc(N)cc(Cl)c2)c2ncn(C(C)C)c2n1", "remaining activity": "64%"}
{"SMILES": "COc1ccc(C(=O)Nc2sc3c(c2C(N)=O)CCCC3)cc1OC", "remaining activity": "104%"}
{"SMILES": "Nc1ncnc2n[nH]c(Nc3ccc(F)cc3)c12", "remaining activity": "87%"}
{"data": "Sample 2", "target": "5-hydroxytryptamine receptor 7 (HTR7, Homo sapiens, UniProt P34969)", "observed": "ligand displacement", "concentration": "10 µM", "UniProt P34969, sequence (whole entry, looked up)": "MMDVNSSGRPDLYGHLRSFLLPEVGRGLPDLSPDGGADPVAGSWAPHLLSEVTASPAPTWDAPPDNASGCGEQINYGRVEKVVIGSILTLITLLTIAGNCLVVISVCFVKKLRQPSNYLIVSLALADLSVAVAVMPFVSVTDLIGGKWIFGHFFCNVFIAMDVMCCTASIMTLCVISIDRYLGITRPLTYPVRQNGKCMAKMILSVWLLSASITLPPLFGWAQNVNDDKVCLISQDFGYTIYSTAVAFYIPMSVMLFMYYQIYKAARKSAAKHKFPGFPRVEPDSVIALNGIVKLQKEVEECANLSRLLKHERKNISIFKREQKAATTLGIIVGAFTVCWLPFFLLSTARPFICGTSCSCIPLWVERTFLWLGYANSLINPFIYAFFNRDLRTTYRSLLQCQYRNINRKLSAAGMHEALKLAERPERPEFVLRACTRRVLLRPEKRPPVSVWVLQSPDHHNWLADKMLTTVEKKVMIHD"}
{"SMILES": "Cc1ccccc1Oc1cc(-n2c(=O)cc(C(F)(F)F)[nH]c2=O)c2ccccc2c1Cl", "inhibition [%]": 13.1}
{"SMILES": "CC1CCN(c2ccnc(NCc3cn(C)cn3)n2)CC1", "inhibition [%]": 34.6}
{"SMILES": "CNC(=O)Nc1ccc2c(c1)CC[C@]21OC(=O)N(CC(=O)N(Cc2ccc(F)cc2)[C@@H](C)C(F)(F)F)C1=O", "inhibition [%]": 7.83}
{"SMILES": "CN(C)CC#Cc1ccc(OCCCc2sc(N3CCc4cccc(C(=O)Nc5nc6ccccc6s5)c4C3)nc2C(=O)O)c(F)c1", "inhibition [%]": -18.9}
{"SMILES": "Nc1nc(NCc2ccccc2)nc(-c2ccccc2CO)n1", "inhibition [%]": 43.9}
{"SMILES": "COc1cc(C(=O)O)ncc1C#Cc1ccccc1NS(=O)(=O)c1cccc2c(N(C)C)ccnc12", "inhibition [%]": -2.53}
{"SMILES": "CN(C)C(=O)c1sc2nc(N3CCC(S(C)(=O)=O)CC3)cc(C(F)(F)F)c2c1N", "inhibition [%]": 2.32}
{"data": "Sample 3", "host": "mouse", "matrix": "microsomes or S9", "concentration": "2 µM", "time": "0.5 h"}
{"Structure (SMILES)": "CC(=O)Nc1nc2ccc(-c3nn(Cc4cc5ccccc5nc4-c4ccccc4C)c4nc(N)ncc34)cc2s1", "remaining compound [%]": 1.95}
{"Structure (SMILES)": "NC(N)=NC(=O)c1cc2cc(Br)ccc2s1", "remaining compound [%]": 17.5}
{"Structure (SMILES)": "c1ccn2c(-c3noc(C4CCn5c(cnc5C5CCCCC5)C4)n3)cnc2c1 (stereo not shown)", "remaining compound [%]": 17.8}
{"Structure (SMILES)": "COC(=O)CC(c1cc(Cl)c2c(c1)OCO2)c1c(O)cc(C)[nH]c1=O (stereo not shown)", "remaining compound [%]": 0}
{"Structure (SMILES)": "C[C@@H](NC(=O)c1cc(S(=O)(=O)N(C)C)c[nH]1)c1ncc[nH]1", "remaining compound [%]": 47.6}
{"Structure (SMILES)": "CC(C)(C)OC(=O)NCCC(=O)Nc1nc2cc(F)ccc2s1", "remaining compound [%]": 46.1}
{"Structure (SMILES)": "O=C(CS(=O)(=O)c1ccccc1)NC(c1ccccc1)c1ccccc1", "remaining compound [%]": 0.472}
{"data": "Sample 4", "organism": "Sarcocystis neurona", "observed": "parasite growth", "concentration": "10 µM", "notes": "secondary screen"}
{"Structure (SMILES)": "CC(=O)/N=c1/sc(S(N)(=O)=O)nn1C", "inhibition": "-35%"}
{"Structure (SMILES)": "Nc1ccc2cn[nH]c2c1", "inhibition": "-41.6%"}
{"Structure (SMILES)": "Cl.NC1CCN(c2cccc(Cl)n2)CC1", "inhibition": "-23%"}
{"Structure (SMILES)": "NC1CCN(c2nc3c(cc2F)c(=O)c(C(=O)O)cn3-c2ccc(F)cc2F)C1 (stereo not shown)", "inhibition": "-0.138%"}
{"Structure (SMILES)": "Cc1nccn1CC1CCc2c(c3ccccc3n2C)C1=O (stereo not shown)", "inhibition": "-35.5%"}
{"Structure (SMILES)": "CC(C)(C(=O)O)c1ccc(C(O)CCCN2CCC(C(O)(c3ccccc3)c3ccccc3)CC2)cc1 (stereo not shown)", "inhibition": "-34%"}
{"Structure (SMILES)": "CCOC(=O)C1=C(C)NC(C)=C(C(=O)OCC)C1c1ccccc1/C=C/C(=O)OC(C)(C)C", "inhibition": "-6.2%"}
{"Structure (SMILES)": "Cc1[nH]cnc1CN1CCc2c(c3ccccc3n2C)C1=O", "inhibition": "-53.9%"}
